# Assay results from different studies.
# Protocols differ between the studies behind these lines.
# Read-out: cell growth or viability
SMILES,cell line,assay,conditions,viability
CC(=O)Nc1cccc(-n2c(=O)n(C3CC3)c(=O)c3c(Nc4ccc(I)cc4F)n(C)c(=O)c(C)c32)c1,Calu-6,resazurin,"1.56 nM, 72 h",87.1%
O=C(Nc1ccc(Oc2nnc(-c3ccc(Cl)cc3)c3ccccc23)cc1)c1ccccc1,HepG2,MTT,"78 nM, 24 h",96%
Cc1c(Cc2ccccc2)c(=O)oc2c(C)c(OCC(=O)NN=Cc3ccccc3)ccc12,MDA-MB-231,MTT,500 µg/mL,4.28%
COc1ccc(NC(=O)c2c(Nc3ccccc3)sc(C(=O)NN=Cc3ccc(OC)c(O)c3)c2NC(C)=O)cc1,HCT-116,SRB,"100 µM, 48 h",29.1%
Cc1c(Cc2ccccc2)c(=O)oc2c(C)c(OCC(=O)NN=Cc3ccco3)ccc12,MDA-MB-231,MTT,62.5 µg/mL,9.88%
O=C(Nc1ccccc1)Nc1ccc(Oc2nnc(-c3ccc(Cl)cc3)c3ccccc23)cc1,HepG2,MTT,"2.5 µM, 24 h",5.21%
COc1ccc(NC(=O)c2c(Nc3ccccc3)sc(C#N)c2NC(=O)CNc2ccc(O)cc2)cc1,HCT-116,SRB,"10 µM, 48 h",69.4%
C=CCNC(=S)NNC(=O)COc1ccc2c(C)c(CC)c(=O)oc2c1C,MDA-MB-231,MTT,31.25 µg/mL,99.9%
CC(=NNC(=O)c1ccccc1Cl)c1ccc(Nc2nnc(-c3ccc(Cl)cc3)c3ccccc23)cc1,HepG2,MTT,"5 µM, 24 h",3.49%
Cc1ccc(C(CS(=O)(=O)c2ccccc2)=NNC2=NC(=O)C(=NNc3ccc([N+](=O)[O-])cc3)S2)cc1,SK-MEL-23,MTT,"25 µM, 48 h",49.4%
Cc1c(Cc2ccccc2)c(=O)oc2c(C)c(OCC(=O)NN=Cc3ccc([N+](=O)[O-])cc3)ccc12,MDA-MB-231,MTT,62.5 µg/mL,32.7%
CC(=O)Nc1ccc(Oc2nnc(-c3ccc(Cl)cc3)c3ccccc23)cc1,HepG2,MTT,"0.156 µM, 24 h",83.9%
CC(C)(C)c1nc(-c2cccc(NS(=O)(=O)c3c(F)cccc3F)c2F)c(-c2ccnc(N)n2)s1,SK-MEL-23,MTT,"1.6 µM, 48 h",61.8%
COc1ccc(NC(=O)c2c(Nc3ccccc3)sc(C#N)c2NC(=O)CNc2ccccc2Cl)cc1,HCT-116,SRB,"1 µM, 48 h",54.5%
CC(=NNC(N)=S)c1ccc(Nc2nnc(-c3ccc(Cl)cc3)c3ccccc23)cc1,HepG2,MTT,"0.625 µM, 24 h",7.6%
COc1ccc(NC(=O)c2c(Nc3ccccc3)sc(C#N)c2NC(=O)CNc2ccc(OC)c(OC)c2)cc1,HCT-116,SRB,"1 nM, 48 h",98.1%
CCNC(=S)NNC(=O)COc1ccc2c(C)c(CC)c(=O)oc2c1C,MDA-MB-231,MTT,31.25 µg/mL,96.7%
COc1ccc(NC(=O)c2c(Nc3ccccc3)sc(C#N)c2NC(=O)CNc2ccccc2[N+](=O)[O-])cc1,HCT-116,SRB,"1 nM, 48 h",102%
O=C(Nc1ccc(Oc2nnc(-c3ccc(Cl)cc3)c3ccccc23)cc1)c1cccc([N+](=O)[O-])c1,HepG2,MTT,"2.5 µM, 24 h",3.63%
CCc1c(C)c2ccc(OCC=Cc3ccccc3)c(C)c2oc1=O,MDA-MB-231,MTT,62.5 µg/mL,99.5%
COc1ccc(NC(=O)c2c(Nc3ccccc3)sc(C#N)c2NC(=O)CNc2ccccc2)cc1,HCT-116,SRB,"0.1 µM, 48 h",81.2%

# Some of these lines once more:
SMILES,cell line,assay,conditions,viability
COc1ccc(NC(=O)c2c(Nc3ccccc3)sc(C#N)c2NC(=O)CNc2ccccc2[N+](=O)[O-])cc1,HCT-116,SRB,"1 nM, 48 h",102%
O=C(Nc1ccc(Oc2nnc(-c3ccc(Cl)cc3)c3ccccc23)cc1)c1cccc([N+](=O)[O-])c1,HepG2,MTT,"2.5 µM, 24 h",3.63%
CCc1c(C)c2ccc(OCC=Cc3ccccc3)c(C)c2oc1=O,MDA-MB-231,MTT,62.5 µg/mL,99.5%
